Assay results gathered from unrelated publications.
Compare with care: the assays were run in different laboratories. Several values in a cell are separate wells, animals, samples, runs or records. Numbers after ± are the reported error.

With CCN(CC)CCNC(=O)c1c(C)[nH]c(/C=C2\C(=O)Nc3ccc(F)cc32)c1C the inhibition was 72% (PKG1β (human); kinase activity, inhibitor; 10 µM).
COC(=O)C1=C(C)NC(C)=C(C(=O)OC)C1c1ccccc1[N+](=O)[O-] — result for “lowest IC30 across channels”: 22.1 µM (human seizure ion channel panel; ion current, automated patch clamp).
C=CC(=O)N1CCC(C(=O)NCC(=O)N2CCN(c3nc(-c4cnc(N)nc4C(F)F)nc(N4CCOCC4)n3)CC2)CC1 gave an IC50 of 0.0813 µM (PKB/Akt; Ser473 phosphorylation, in-cell western; SK-OV-3).
For c1ccc(CSc2nc3ccccc3cc2CNCc2ccc(N3CCCCC3)cc2)cc1, the inhibition was 86% (electron transport chain; proton pumping, ACMA quenching; Pseudomonas aeruginosa inverted membrane vesicles; 32 µg/mL, together with: NADH).
For CCCN1C[C@H](CSC)C[C@@H]2c3cccc4[nH]cc(c34)C[C@H]21, “lowest IC30 across channels” read 4.39 µM (human seizure ion channel panel; ion current, automated patch clamp).
With CCCCNc1ccc(C(=O)OCCN(C)C)cc1 the Vmax was 2430 pmol/min/mg protein (H+/organic cation antiporter; cell uptake; hCMEC/D3).
COc1nc(NCc2cn(-c3ccc(C(=O)Nc4ccc(C(F)(F)F)cc4)cc3)nn2)nc(OC)n1 — result for “concentration of maximal DNA damage”: 4 µM (calf thymus DNA; Tb3+ fluorescence; no further fluorescence increase above).
Brc1ccc2nc(SCc3ccccc3)c(CNCc3ccc(CN4CCCC4)cc3)cc2c1 gave an inhibition of 30% (electron transport chain; proton pumping, ACMA quenching; Pseudomonas aeruginosa inverted membrane vesicles; 2 µg/mL, together with: NADH).
The Km of CCCOC(C(=O)OC1CCN(C)CC1)(c1ccccc1)c1ccccc1 is reported as 12.3 µM (H+/organic cation antiporter; cell uptake; hCMEC/D3).
For c1coc(-c2n[nH]cc2-c2ccnc3ccccc23)c1, “log2 fold change” read -0.2 (CDC7 (Candida albicans); kinase binding, MIB/MS competition; Candida albicans lysate; 1 µM; baseline: DMSO).
Cc1ccc(C(=O)OCC(=O)[C@@H](CC(=O)O)NC(=O)[C@@H](Cc2ccccc2)NC(=O)C[C@@H](CC(C)C)NC(=O)[C@@H](CC(=O)O)NC(=O)[C@@H](Cc2cccnc2)NC(=O)CCCCCNC(=O)CCCCCNC(=O)CCCc2cn(CCF)nn2)s1: inhibition “no effect” (caspase; enzyme activity; HeLa cells; 75 µM, 4 h, together with: staurosporine 1 µM).
The ΔTm of C[n+]1cccc2cc(C=NNC(=O)c3ccc4ccc5ccc(C(=O)NN=Cc6ccc7c(ccc[n+]7C)c6)nc5c4n3)ccc21.[I-].[I-] is reported as 35.9 ± 0.1 °C (telomeric G4 DNA hybrid-2; FRET melting; 1 µM, DNA 0.2 µM).
With NC(=O)C1=CN([C@@H]2O[C@H](COP(=O)(O)OP(=O)(O)OC[C@H]3O[C@@H](n4cnc5c(N)ncnc54)[C@H](O)[C@@H]3O)[C@@H](O)[C@H]2O)C=CC1 the kcat was 7.06 ± 1.25 s⁻¹ (FSP1 F354A mutant; substrate; together with: 100 µM co-substrate).
The inhibition of c1ccc(CSc2nc3ccccc3cc2CNCc2ccc(CN3CCCC3)cc2)cc1 is reported as 8% (electron transport chain; proton pumping, ACMA quenching; Pseudomonas aeruginosa inverted membrane vesicles; 2 µg/mL, together with: NADH).
COc1nc(NCc2cn(-c3ccc(C(=O)Nc4ccccc4)cc3)nn2)nc(OC)n1 — result for “concentration of maximal DNA damage”: 6 µM (calf thymus DNA; Tb3+ fluorescence; no further fluorescence increase above).
Under “lowest IC30 across channels”, COc1ccc2c3c1O[C@H]1C[C@@H](O)C=C[C@@]31CCN(C)C2 is recorded as greater than 30 µM (human seizure ion channel panel; ion current, automated patch clamp).
The Vmax of CN(C)CCOC(c1ccccc1)c1ccccc1.Cn1c(=O)c2[nH]c(Cl)nc2n(C)c1=O is reported as 2040 pmol/min/mg protein (H+/organic cation antiporter; cell uptake; hCMEC/D3).
For CC[S+]([O-])c1nc(-c2ccccc2)cc(C(F)(F)F)n1 (centres unmarked), “cells with nuclear reporter” read 92.2% and 81.9% and 80.1% and 80.3% (importin alpha/beta-1; cMyc nuclear import, high content imaging; HeLa Kyoto reporter; 0.5 µM, 2 h).
The responding cells of Nc1ncnc2c1ncn2[C@@H]1O[C@H](COP(=O)(O)OP(=O)(O)OP(=O)(O)O)[C@@H](O)[C@H]1O is reported as 62.3 ± 11.5% (P2Y receptor; calcium response, fura-2 imaging; 16HBE14o- cells; 2.5 µM).
Cc1cc(NS(=O)(=O)c2ccc(NC(=O)/C(C#N)=C/c3ccc(N4CCCCC4)cc3)cc2)no1 gave a hypochromism of roughly 39% (calf thymus DNA; UV-vis titration; 30 µM, together with: DNA 0 to 90 µM).
Under “cells with nuclear reporter”, CC(Nc1nc(N2CCCC2)nc2ccccc12)c1ccccc1 (centres unmarked) is recorded as 89.3% (importin α/β1; cMyc nuclear import, high content imaging; HeLa Kyoto reporter; 5 µM, 2 h).
For O=C(CCCN1CCC(O)(c2ccc(Cl)cc2)CC1)c1ccc(F)cc1, the Vmax was 1840 pmol/min/mg protein (H+/organic cation antiporter; cell uptake; hCMEC/D3).
CC(C)COc1ccc(CNC(=O)N(Cc2ccc(F)cc2)C2CCN(C)CC2)cc1 — result for “lowest IC30 across channels”: 0.561 µM (human seizure ion channel panel; ion current, automated patch clamp).
For Oc1ccccc1-c1n[nH]cc1-c1ccnc2ccccc12, “log2 fold change” read -0.21 (PTK2 (Candida albicans); kinase binding, MIB/MS competition; Candida albicans lysate; 10 µM; baseline: DMSO).
For O=S(=O)(NCCNC/C=C/c1ccc(Br)cc1)c1cccc2cnccc12, “embryos arrested at zygote stage” read 0% (PKA; inhibitor; mouse zygotes; 20 µM, injection, hCG, 72 h post, early embryonic development).
The Km of CC(C)C(=O)Oc1ccc(CO)cc1[C@H](CCN(C(C)C)C(C)C)c1ccccc1 is reported as 47.8 µM (H+/organic cation antiporter; cell uptake; hCMEC/D3).
CCS(=O)(=O)c1nc(C2CC2)cc(C(F)(F)F)n1 — result for “cells with nuclear reporter”: 91.5% and 90.5% and 64.8% and 97.2% (importin alpha/beta-1; cMyc nuclear import, high content imaging; HeLa Kyoto reporter; 1.58 µM, 2 h).
The Km of O=C(O[C@H]1CN2CCC1CC2)N1CCc2ccccc2[C@@H]1c1ccccc1 is reported as 11.8 µM (H+/organic cation antiporter; cell uptake; hCMEC/D3).
COc1cccc2c1C(=O)c1c(O)c3c(c(O)c1C2=O)C[C@@](O)(C(=O)CO)C[C@@H]3O[C@H]1C[C@H](N)[C@H](O)[C@H](C)O1 — result for “limit of quantification”: 2.56 nM (calf thymus DNA; DNA damage, Tb3+ fluorescence; 24 h).
CC(C)c1cn(C(C)C)c(CN2CCN(Cc3nc(C(C)C)cn3C(C)C)CCN(Cc3nc(C(C)C)cn3C(C)C)CC2)n1: “stability constant difference” ≥ 9 orders of magnitude (Zn2+; potentiometric titration; baseline: Zn2+ over Mn2+).
CCCNC(C)C(=O)Nc1c(C)csc1C(=O)OC (centres unmarked) gave a Vmax of 364 pmol/min/mg protein (H+/organic cation antiporter; cell uptake; hCMEC/D3).
C[C@@H]1CC[C@H]2[C@@H](/C1=C/C[C@H]1[C@]3(C)CCC(=O)C(C)(C)O[C@H]3CC[C@]1(C)O)C(C)(C)CC[C@]2(C)O — result for “intracellular paclitaxel accumulation”: 2.36 fold (P-glycoprotein human; inhibitor; KB-C2; 10 µM, 2 h, together with: [3H]-paclitaxel; baseline: untreated).
With CN1CCN(CCNCc2cc3ccccc3nc2SCc2ccccc2)CC1 the inhibition was 13% (electron transport chain; proton pumping, ACMA quenching; Pseudomonas aeruginosa inverted membrane vesicles; 2 µg/mL, together with: NADH).
COc1cc2c(c(OC)c1OC)-c1ccc(OC)c(=O)cc1[C@@H](NC(C)=O)CC2 — result for “lowest IC30 across channels”: greater than 30 µM (human seizure ion channel panel; ion current, automated patch clamp).
C[C@H]1C[C@@H](N2C(=N)N[C@](C)(c3cccc(Nc4ccc(C5CC5)nc4)c3Cl)CC2=O)CCO1 has an IC50 of greater than 30 µM (human cardiac ion channels; ion current; panel other channels).
CCN1CCC(CCNCc2cc3cc(-c4ccccc4)ccc3nc2SCc2ccccc2)CC1 gave an inhibition of 6% (electron transport chain; proton pumping, ACMA quenching; Pseudomonas aeruginosa inverted membrane vesicles; 2 µg/mL, together with: NADH).
With O=C(Nc1ccc(Cl)cc1)Nc1ccc(Cl)c(Cl)c1 the cross-reactivity was less than 0.1% (camel nanobody T2; binding, competitive ELISA; concentration not given).
CC[C@@H](C(=O)Nc1ccc(C(N)=O)c(F)c1)n1cc(OC)c(-c2cc(Cl)ccc2-n2cc(C(F)(F)F)nn2)cc1=O gave an IC50 of 9.1 µM (human trypsin; enzyme activity).
c1ccc(CSc2nc3ccc(-c4ccccc4)cc3cc2CNCCC2CCN(C3CCCC3)CC2)cc1 gave an inhibition of 25% (electron transport chain; proton pumping, ACMA quenching; Pseudomonas aeruginosa inverted membrane vesicles; 2 µg/mL, together with: NADH).
For CCCCN1CCCC[C@H]1C(=O)Nc1c(C)cccc1C, the Km was 96.1 µM (H+/organic cation antiporter; cell uptake; hCMEC/D3).
With CC(C)n1cc(C(C)(C)C)nc1CN1CCN(Cc2nc(C(C)(C)C)cn2C(C)C)CCN(Cc2nc(C(C)(C)C)cn2C(C)C)CC1 the pZn was 5.5 (Zn2+; potentiometric titration; pH 7.4, ligand and metal 2 mM).

Some of these lines once more:
The Km of O=C(O[C@H]1CN2CCC1CC2)N1CCc2ccccc2[C@@H]1c1ccccc1 is reported as 11.8 µM (H+/organic cation antiporter; cell uptake; hCMEC/D3).
The responding cells of Nc1ncnc2c1ncn2[C@@H]1O[C@H](COP(=O)(O)OP(=O)(O)OP(=O)(O)O)[C@@H](O)[C@H]1O is reported as 62.3 ± 11.5% (P2Y receptor; calcium response, fura-2 imaging; 16HBE14o- cells; 2.5 µM).
CCN1CCC(CCNCc2cc3cc(-c4ccccc4)ccc3nc2SCc2ccccc2)CC1 gave an inhibition of 6% (electron transport chain; proton pumping, ACMA quenching; Pseudomonas aeruginosa inverted membrane vesicles; 2 µg/mL, together with: NADH).
